# Measured values pooled from the literature.
# Compare with care: the assays were run in different laboratories. Several values in a cell are separate wells, animals, samples, runs or records.
SMILES,cell line,test,system,conditions,scale,measurement,result
CC[C@H](C)[C@H](N)C(=O)N[C@@H](CC(C)C)C(=O)NCC(=O)N[C@@H](CCCCN)C(=O)N[C@H](C(=O)N[C@@H](Cc1c[nH]c2ccccc12)C(=O)N[C@@H](CCC(=O)O)C(=O)NCC(=O)N[C@H](C(=O)N[C@@H](CCCCN)C(=O)N[C@@H](CO)C(=O)N[C@@H](CC(C)C)C(=O)N[C@@H](Cc1ccccc1)C(=O)N[C@@H](CS)C(N)=O)[C@@H](C)CC)[C@@H](C)CC,human red blood cells,,,pH 7.4,baseline: Triton X-100,EC50,57.5 µM
CN1CCN(C2(CNC3CCN(c4cccc(-c5cc6cc(F)ccc6[nH]5)c4)CC3)CCC2)CC1,NCI-H322M,,,,,CC50,6.69 µM
CCN(CC)c1ccc(C=NNC(=O)CSc2nc3ccccc3c(=O)n2Cc2ccc(S(N)(=O)=O)cc2)c(O)c1,NCI-H23,NCI five-dose screen,,,,CC50,> 100 µM
CS(=O)(=O)c1ccc(-c2nnc(/C=C/c3nnc(-c4ccc(C#N)cc4)o3)n2-c2ccccc2Cl)nc1,Apc Q1405X mutant organoids,"organoid viability, AlamarBlue",mouse small intestinal organoids,"6 days, Tnks genotype Tnks+/+",,Hill slope,-2.76
Nc1ncc(-c2nc(N3CCOCC3)nc(N3CCOCC3)n2)c(C(F)F)n1,AU565,,,72 h,,GI50,0.047 µM
C=C1CC[C@@H]2[C@](C)(CCC[C@]2(C)C(=O)O)[C@H]1CC/C(C)=C/CO,"neuroblastoma M2, MYCN overexpressing",SRB,,"concentration not given, 48 h, together with: doxycycline",,viability,decreased
C/C=C(/C)C(=O)O[C@H]1C(C)=C2[C@H]([C@@H]1OC(=O)CCCCCCC)[C@@](C)(OC(C)=O)C[C@H](OC(=O)CCC)[C@@]1(O)[C@H]2OC(=O)[C@@]1(C)O,HEK-293T,"RNA-seq GSEA, measured: Hallmark estrogen response early",,"500 nM, 6 h",direction not given,normalized enrichment score,1.32
CCC(=O)CCCCC[C@@H]1NC(=O)[C@H]2CCCCN2C(=O)[C@H]([C@@H](C)CC)NC(=O)[C@H](Cc2cn(OC)c3ccccc23)NC1=O,HBL-1,,,"0.1 µM, 120 h",,viability,40%
Nc1ncnc2c1ncn2[C@@H]1O[C@@H]2COP(=O)(O)O[C@H]3[C@@H](O)[C@H](n4cnc5c(=O)[nH]cnc54)O[C@@H]3COP(=O)(O)O[C@H]2[C@H]1O,HFF-1,"RNA sequencing, measured: Endosomal/Vacuolar pathway",,upregulated pathway,baseline: Zika virus alone,pathway fold enrichment,41.3
O=S(=O)(c1ccc(O)cc1)c1ccc(O)cc1,HepG2 spheroids,planimetry,,"10 µM, 24 to 96 h",baseline: mean area of 72 h spheroids,spheroid area increase,196%
COc1ccc2c(c1)[nH]c1c(C)nccc12,DU-145,"bisulfite pyrosequencing, measured: RASSF1A promoter CpG site 16",,"10 µM, 16 h",,CpG methylation,87.5%
CC[C@H](C)[C@H](NC(=O)[C@H](CCCCN)NC(=O)[C@H](CCCCN)NC(=O)[C@@H](NC(=O)[C@@H](NC(=O)[C@H](CC(=O)O)NC(=O)[C@H](Cc1ccccc1)NC(=O)[C@H](CC(C)C)NC(=O)CN)[C@@H](C)CC)[C@@H](C)CC)C(=O)N[C@@H](C)C(=O)N[C@@H](CCC(=O)O)C(=O)N[C@@H](CO)C(=O)N[C@@H](Cc1ccccc1)C(=O)N[C@@H](CS)C(N)=O,human red blood cells,,,pH 5.5,baseline: Triton X-100,EC50,95 µM
Oc1ccc(C2(c3ccc(O)cc3)c3ccccc3-c3ccccc32)cc1,HepG2 spheroids,planimetry,,"10 µM, 0 to 24 h",baseline: mean area of 72 h spheroids,spheroid area increase,126%
CC(C)C[C@H](NC(=O)[C@H](CCc1ccccc1)NC(=O)CN1CCOCC1)C(=O)N[C@@H](Cc1ccccc1)C(=O)N[C@@H](CC(C)C)C(=O)[C@@]1(C)CO1,patient tumour conditionally reprogrammed cells,"RNA-seq, measured: EYA4 mRNA",human,concentration not given,baseline: DMSO,fold change,-1430
C[C@@H]1O[C@@H](O[C@H]2C[C@@H](O)[C@]3(CO)[C@H]4[C@H](O)C[C@]5(C)[C@@H](C6=CC(=O)OC6)CC[C@]5(O)[C@@H]4CC[C@]3(O)C2)[C@H](O)[C@H](O)[C@H]1O,BT-16,"cell viability, MTT",,"10 µM, 72 h",,inhibition,91.8%
Cc1nn(-c2nc3c(F)cc(F)cc3s2)c(O)c1C(c1ccc(C(F)(F)F)cc1)c1c(C)nn(-c2nc3c(F)cc(F)cc3s2)c1O,RAW-ISG,CCK-8,,100 µM,,viability,15.4% and 7.29% and 14.9% and 6.59%
Cc1cc(NS(=O)(=O)c2ccc(NC(=O)/C(C#N)=C/c3ccc(N4CCCCC4)cc3)cc2)no1,HCT-116,"ELISA, measured: caspase-3",,"IC50, 48 h",baseline: untreated,protein level,4.13 fold
CN1C(=O)[C@@]23C[C@]4([C@]56C[C@@]78SS[C@@](CO)(C(=O)N7[C@H]5Nc5ccccc56)N(C)C8=O)c5ccccc5N[C@@H]4N2C(=O)[C@]1(CO)SS3,HBL-1,,,"1 µM, 120 h",,viability,0.324%
O=c1cc(-c2ccc(O)cc2)oc2cc(O)cc(O)c12,induced SH-SY5Y Aβ-GFP cells,,,5 µM,,neurite process number,3.5 to 3.6
CC[C@H](C)[C@H](NC(=O)CN)C(=O)NCC(=O)N[C@@H](C)C(=O)N[C@H](C(=O)N[C@@H](CC(C)C)C(=O)N[C@@H](CCCCN)C(=O)N[C@H](C(=O)N[C@@H](CC(C)C)C(=O)N[C@H](C(=O)N[C@H](C(=O)NCC(=O)N[C@@H](CC(C)C)C(=O)N1CCC[C@H]1C(=O)N[C@@H](C)C(=O)N[C@@H](CC(C)C)C(=O)N[C@H](C(=O)N[C@@H](CO)C(=O)N[C@@H](Cc1c[nH]c2ccccc12)C(=O)N[C@H](C(=O)N[C@@H](CCCCN)C(=O)N[C@@H](CCCNC(=N)N)C(=O)N[C@@H](CCCCN)C(=O)N[C@@H](CCCNC(=N)N)C(=O)N[C@@H](CCC(N)=O)C(=O)N[C@@H](CCC(N)=O)C(=O)N[C@@H](CS)C(N)=O)[C@@H](C)CC)[C@@H](C)CC)[C@@H](C)O)[C@@H](C)O)C(C)C)C(C)C,human red blood cells,,,pH 7.4,baseline: Triton X-100,EC50,6 µM
COc1c(CCC[P+](c2ccccc2)(c2ccccc2)c2ccccc2)cc2c(c1OC)OCO2.[I-],LOX IMVI,SRB,,,,Log10TGI,-4.98 log M
CC(C)=CCC/C(C)=C\CCn1cc(C2CC2(P(=O)([O-])[O-])P(=O)([O-])[O-])nn1.[Na+].[Na+].[Na+].[Na+] (centres unmarked),MM.1S,measured: unmodified Rap1a,,"concentration not given, 48 h",,inhibition of geranylgeranylation,inactive
COC(=O)C1=CCCN(C)C1,human iPSC-derived cardiomyocytes,"MyBP-C/MYH ratio, plate-normalised SD score",,"concentration not given, primary screen",direction not given,activity score,4
O=C1N(Cc2ccccc2Cl)c2ccccc2C12NN=C(c1ccccc1)S2 (centres unmarked),MDA-MB-468,"gene expression array, measured: FAM125A mRNA",,"10 µM, 12 h","baseline: untreated, up",fold change,1.59
CC[C@H](C)[C@H](NC(=O)[C@H](CCCCN)NC(=O)[C@H](CCCCN)NC(=O)[C@H](Cc1ccccc1)NC(=O)[C@H](CC(C)C)NC(=O)[C@H](CCCCN)NC(=O)[C@H](Cc1c[nH]c2ccccc12)NC(=O)[C@@H](N)CCCCN)C(=O)N[C@@H](Cc1ccccc1)C(=O)N[C@@H](CCCCN)C(=O)N[C@@H](CCCNC(=N)N)C(=O)N[C@H](C(=O)N[C@H](C(=O)N[C@@H](CCC(N)=O)C(=O)N[C@@H](CCCNC(=N)N)C(=O)N[C@H](C(=O)N[C@@H](CCCCN)C(=O)N[C@@H](CC(=O)O)C(=O)N[C@@H](Cc1ccccc1)C(=O)N[C@@H](CC(C)C)C(=O)N[C@@H](CCCNC(=N)N)C(=O)N[C@@H](CS)C(N)=O)[C@@H](C)CC)C(C)C)[C@@H](C)CC,human red blood cells,,,pH 7.4,baseline: Triton X-100,EC50,9 µM
COCCCn1c(N)c(C(=O)NC2CCCC2)c2nc3ccccc3nc21,HBL-1,,,"1 µM, 120 h",,viability,103%
CC[C@H]1CN2CC[C@H]1C[C@@H]2[C@@H](O)c1ccnc2ccc(OC)cc12,human iPSC-derived cardiomyocytes,"MyBP-C/MYH ratio, plate-normalised SD score",,"concentration not given, primary screen",direction not given,activity score,3.8
COc1cccc2c1C(=O)c1c(O)c3c(c(O)c1C2=O)C[C@@](O)(C(=O)CO)C[C@@H]3O[C@H]1C[C@H](N)[C@H](O)[C@H](C)O1,SCC-40,sulforhodamine B,,"10 µg/mL, 48 h",negative means cell kill,growth percent,-73.7%
Cn1cc(C2=C(c3cn(C4CCN(Cc5ccccn5)CC4)c4ccccc34)C(=O)NC2=O)c2ccccc21,iCell Cardiomyocytes (hiPSC-derived),CellTiter-Glo,,"concentration not given, 24 h",baseline: control,ATP level,103%
CC(C)=CCC[C@](C)(O)[C@H]1CC[C@]2(C)[C@@H]1[C@H](O)C[C@@H]1[C@@]3(C)CC[C@H](O)C(C)(C)[C@@H]3[C@@H](O[C@@H]3O[C@H](CO)[C@@H](O)[C@H](O)[C@H]3O)C[C@]12C,HepG2,"cell viability, CCK-8",,12.5 µM,higher = more viable cells,optical density,1.16 a.u. and 1.28 a.u. and 1.32 a.u. and 1.26 a.u. and 1.17 a.u. and 1.3 a.u.
COc1c(C)c2c(c(O)c1C/C=C(\C)CCC(=O)O)C(=O)OC2,brain cancer cell lines,cell proliferation,,average over lines,,IC50,1.05 µM
Cc1ccc2cc3c(ccc4ccccc43)c3c2c1CC3,BALB/c 3T3,,,"15 µM, positive control",,plating efficiency,2%
CC(C)N1CCC(NC2CCN(c3cccc(-c4cc5cc(F)ccc5[nH]4)c3)CC2)CC1,RXF 393,,,,,CC50,6.1 µM
Cn1cncc1C1=CN(c2ncnc3[nH]cnc23)CCS1,NCI-H522,,,lung cancer,,CC50,> 200 µM
CC(=O)NC1CCSC1=O (centres unmarked),human iPSC-derived cardiomyocytes,"MyBP-C/MYH ratio, plate-normalised SD score",,"concentration not given, primary screen",direction not given,activity score,16
COc1cc(CCC[P+](c2ccccc2)(c2ccccc2)c2ccccc2)c(OC)c2c1OCO2.[I-],HCC 2998,SRB,,,,GI50,-5.66 log M
CO[C@H]1[C@H](O)[C@H](O[C@H]2CC[C@@]3(C=O)[C@H](CC[C@@H]4[C@@H]3CC[C@]3(C)[C@@H](C5=CC(=O)OC5)CC[C@]43O)C2)O[C@@H](C)[C@@H]1O,human iPSC-derived cardiomyocytes,"MyBP-C/MYH ratio, plate-normalised SD score",,"concentration not given, primary screen",direction not given,activity score,7.1
CN1CCN(S(=O)(=O)c2cc([N+](=O)[O-])ccc2N(CCOS(C)(=O)=O)CCOS(C)(=O)=O)CC1,sample DC T-ALL PDX cells,cell viability,ex vivo,"48 h, together with: AKR1C3 inhibitor 1 µM, 1 h pretreatment",,IC50,3.86 µM

# A few entries again:
SMILES,cell line,test,system,conditions,scale,measurement,result
Cc1nn(-c2nc3c(F)cc(F)cc3s2)c(O)c1C(c1ccc(C(F)(F)F)cc1)c1c(C)nn(-c2nc3c(F)cc(F)cc3s2)c1O,RAW-ISG,CCK-8,,100 µM,,viability,15.4% and 7.29% and 14.9% and 6.59%
COCCCn1c(N)c(C(=O)NC2CCCC2)c2nc3ccccc3nc21,HBL-1,,,"1 µM, 120 h",,viability,103%
CC(C)C[C@H](NC(=O)[C@H](CCc1ccccc1)NC(=O)CN1CCOCC1)C(=O)N[C@@H](Cc1ccccc1)C(=O)N[C@@H](CC(C)C)C(=O)[C@@]1(C)CO1,patient tumour conditionally reprogrammed cells,"RNA-seq, measured: EYA4 mRNA",human,concentration not given,baseline: DMSO,fold change,-1430
